Experimental data of several laboratories.
Each numbered part is a random draw from the data of one study; scales do not carry over between parts. Positions count from the first letter of the parent shown.

Study 1
Target: Prothrombin, mature alpha-thrombin (F2, Homo sapiens, UniProt P00734)
Technique: aptamer microarray, sandwich
Form: DNA with 2'F-ANA
Sample: in vitro
Tested at: 200 nM
Notes: whole 15-mer aptamer, many near background
With: Cy3 exosite-II aptamer, 400 nM
Reading: higher = stronger binding
Strand: GGTTGGTGTGGTTGG
Modification | mean fluorescence intensity [a.u.]
2'F-ANA at 3 4 9 10 13 15 | 241
2'F-ANA at 1 3 4 6 7 8 9 11 12 13 14 15 | 77.5
2'F-ANA at 1 2 3 5 6 7 11 12 13 15 | 72.3
2'F-ANA at 2 4 7 10 11 13 14 15 | 62
2'F-ANA at 1 4 5 7 8 9 13 14 | 58.5
2'F-ANA at 1 9 15 | 259
2'F-ANA at 1 3 5 8 9 10 13 | 54.1
2'F-ANA at 1 3 4 6 7 9 10 11 15 | 77.1

Study 2
Target: Ras GTPase-activating protein-binding protein 1, full length (G3BP1, Homo sapiens, UniProt Q13283)
Sequence of UniProt Q13283 (whole entry, looked up): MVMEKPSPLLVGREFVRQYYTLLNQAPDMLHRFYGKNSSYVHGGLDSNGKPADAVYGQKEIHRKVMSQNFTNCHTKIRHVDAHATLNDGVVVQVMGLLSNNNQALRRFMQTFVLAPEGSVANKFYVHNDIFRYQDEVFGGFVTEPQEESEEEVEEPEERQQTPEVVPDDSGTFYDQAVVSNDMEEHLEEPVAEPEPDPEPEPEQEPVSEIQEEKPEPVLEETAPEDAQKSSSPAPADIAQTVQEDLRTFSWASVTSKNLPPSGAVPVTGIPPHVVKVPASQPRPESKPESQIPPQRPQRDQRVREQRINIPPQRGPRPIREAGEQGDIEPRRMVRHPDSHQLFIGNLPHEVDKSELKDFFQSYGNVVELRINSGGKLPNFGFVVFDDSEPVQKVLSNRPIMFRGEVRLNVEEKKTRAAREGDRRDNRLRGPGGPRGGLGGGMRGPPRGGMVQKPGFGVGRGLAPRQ
Technique: RNA Bind-n-Seq
Form: RNA
Sample: in vitro
Tested at: 200 nM
Notes: whole 134-nt RNA, ends assumed
With: 150 mM LiCl
Baseline: input library
Reading: higher = stronger binding
All molecules: 7-deaza-guanosine replaces G
Strand | log2 enrichment
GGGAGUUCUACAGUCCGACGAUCCAAGUCCUGUGCUACACAUCGUAUGUACCGAAUCGGGGUUGGGGUUGGGGUUGGGGAAAGUAUUAUGUUACGCCGUUCGGAUCUGCACUUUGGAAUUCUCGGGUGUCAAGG | -0.548
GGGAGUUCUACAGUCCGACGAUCGCAGGAAGUAAAAACAAAUGGAAAUGCUUCGGAUAGUGGCAGGGGUGGGGGUUGCUAAGGAAAGGGUGGGAUGGGAGCGGGUAAAGAGUUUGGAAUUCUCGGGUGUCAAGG | 0.335
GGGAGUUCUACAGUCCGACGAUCAGUCCUGUGCUACACAUCGUAUGUACCGAAUCGGAAAAAGGGAAAAAGGAAAAAGGGAAAGUAUUAUGUUACGCCGUUCGGAUCUGCACUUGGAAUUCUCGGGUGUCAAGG | -1.07
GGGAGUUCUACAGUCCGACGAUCUGAAGGCGCGGCCCUUCCCCGACGGCCUGGCCGAGGACAUCGAUAAAGGCGAGGUGUCCGCCCGUCAGGAGCUCAAGCAGCGGGCGCGCUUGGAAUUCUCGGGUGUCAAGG | 0.00216
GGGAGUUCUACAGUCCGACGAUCCCUGUGCUACACAUCGUAUGUACCGAAUCGGCCCCCCGGGGCCCCCCGGGGCCCCCCGGGGAAAGUAUUAUGUUACGCCGUUCGGAUCUGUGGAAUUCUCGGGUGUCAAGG | -2.24
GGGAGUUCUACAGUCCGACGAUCCCUGUGCUACACAUCGUAUGUACCGAAUCGGGCCCCCCCGGGCCCCCCCGGCCCCCCCGGGAAAGUAUUAUGUUACGCCGUUCGGAUCUGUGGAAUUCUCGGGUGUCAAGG | -0.209
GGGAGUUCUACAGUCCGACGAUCUCCUCAAGUCCUGUGCUACACAUCGUAUGUACCGAAUCGGGUGGUGGGUGGAAAGUAUUAUGUUACGCCGUUCGGAUCUGCACUUCCAGCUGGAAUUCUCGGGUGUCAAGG | 0.224
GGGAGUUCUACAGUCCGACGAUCAGUCCUGUGCUACACAUCGUAUGUACCGAAUCGGGGUUUUGGGUUUUGGGGUUUUGGAAAGUAUUAUGUUACGCCGUUCGGAUCUGCACUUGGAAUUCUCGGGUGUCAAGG | -0.233

Mixed results
P1: viral docking peptide; KGVKRKLFAEDSS; partner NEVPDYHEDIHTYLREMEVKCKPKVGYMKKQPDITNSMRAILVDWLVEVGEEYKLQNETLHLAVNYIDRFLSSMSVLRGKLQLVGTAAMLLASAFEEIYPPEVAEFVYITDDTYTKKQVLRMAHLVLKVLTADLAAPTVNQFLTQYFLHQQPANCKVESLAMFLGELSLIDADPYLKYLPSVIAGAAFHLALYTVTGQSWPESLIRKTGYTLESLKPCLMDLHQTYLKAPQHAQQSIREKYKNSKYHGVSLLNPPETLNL
Substance | target or system | assay | test system | setting | scale | measurement | value
CC(O)(CS(=O)(=O)c1ccc(F)cc1)C(=O)Nc1ccc(C#N)c(C(F)(F)F)c1 (stereo not shown) | Sarcocystis neurona | parasite activity |  | 10 µM, 96 h |  | activity class | inactive
OC(c1ccccc1)(c1ccccc1)C1CCNCC1 | mouse MPNST tumor cells | high-content nuclear imaging, item: cell number |  | 10 µM, 12 h, mean of 2 replicates | baseline: plate mean, higher = more cells | nuclei count | 2.83 z-score
P1 K6N | CCNA2, cyclin fold, Cln2 fusion (human) | yeast growth competition, sequencing | yeast | strong parent motif | baseline: not given, higher = stronger binding | normalised enrichment score | 5.16
